Measured values of several laboratories.
Every numbered part comes from another study and shows a few of its results, in no order.
Sequence of UniProt Q9BQI3 (whole entry, looked up): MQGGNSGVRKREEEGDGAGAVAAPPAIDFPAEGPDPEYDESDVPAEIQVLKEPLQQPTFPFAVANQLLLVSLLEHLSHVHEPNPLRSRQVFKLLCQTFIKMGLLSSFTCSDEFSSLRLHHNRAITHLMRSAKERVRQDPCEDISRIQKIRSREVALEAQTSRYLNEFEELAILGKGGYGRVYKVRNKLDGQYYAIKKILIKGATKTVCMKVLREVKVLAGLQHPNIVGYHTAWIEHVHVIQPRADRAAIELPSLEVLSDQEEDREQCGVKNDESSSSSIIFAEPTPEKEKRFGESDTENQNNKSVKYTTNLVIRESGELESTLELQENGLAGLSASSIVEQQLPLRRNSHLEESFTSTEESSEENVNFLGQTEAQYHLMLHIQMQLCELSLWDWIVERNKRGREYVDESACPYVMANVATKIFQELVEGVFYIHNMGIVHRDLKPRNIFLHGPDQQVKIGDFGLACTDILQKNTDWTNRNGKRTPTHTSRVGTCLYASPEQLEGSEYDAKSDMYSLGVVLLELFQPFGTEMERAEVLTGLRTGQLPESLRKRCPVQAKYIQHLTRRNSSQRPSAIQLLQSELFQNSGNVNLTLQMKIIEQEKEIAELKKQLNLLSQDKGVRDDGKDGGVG
Sequence of UniProt Q8IVW4 (whole entry, looked up): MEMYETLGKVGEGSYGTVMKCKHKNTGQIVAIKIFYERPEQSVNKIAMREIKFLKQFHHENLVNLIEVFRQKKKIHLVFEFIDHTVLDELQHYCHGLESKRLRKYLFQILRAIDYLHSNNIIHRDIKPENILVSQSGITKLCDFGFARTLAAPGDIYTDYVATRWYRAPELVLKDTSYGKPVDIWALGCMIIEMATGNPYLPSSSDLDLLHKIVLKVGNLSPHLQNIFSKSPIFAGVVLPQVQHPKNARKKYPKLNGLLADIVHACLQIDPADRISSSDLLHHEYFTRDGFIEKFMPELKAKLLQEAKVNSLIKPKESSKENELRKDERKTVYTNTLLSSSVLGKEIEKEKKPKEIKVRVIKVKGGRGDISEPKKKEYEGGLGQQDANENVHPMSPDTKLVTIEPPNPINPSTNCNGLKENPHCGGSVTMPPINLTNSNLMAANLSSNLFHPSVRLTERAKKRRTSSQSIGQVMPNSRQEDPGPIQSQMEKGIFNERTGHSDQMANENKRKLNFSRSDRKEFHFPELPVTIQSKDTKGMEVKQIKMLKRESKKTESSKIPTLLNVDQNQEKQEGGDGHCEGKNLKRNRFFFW
Sequence of UniProt Q9NY57 (whole entry, looked up): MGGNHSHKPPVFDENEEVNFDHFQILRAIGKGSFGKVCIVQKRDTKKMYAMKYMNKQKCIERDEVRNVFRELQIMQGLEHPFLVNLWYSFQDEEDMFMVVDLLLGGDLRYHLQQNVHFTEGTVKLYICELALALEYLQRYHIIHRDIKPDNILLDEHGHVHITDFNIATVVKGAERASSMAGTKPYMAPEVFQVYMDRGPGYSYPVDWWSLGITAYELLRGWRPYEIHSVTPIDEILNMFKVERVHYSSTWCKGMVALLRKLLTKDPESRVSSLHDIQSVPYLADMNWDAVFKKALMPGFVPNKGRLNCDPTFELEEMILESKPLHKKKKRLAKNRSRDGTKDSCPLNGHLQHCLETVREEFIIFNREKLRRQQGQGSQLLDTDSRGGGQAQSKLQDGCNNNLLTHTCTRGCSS
Sequence of UniProt Q13555 (whole entry, looked up): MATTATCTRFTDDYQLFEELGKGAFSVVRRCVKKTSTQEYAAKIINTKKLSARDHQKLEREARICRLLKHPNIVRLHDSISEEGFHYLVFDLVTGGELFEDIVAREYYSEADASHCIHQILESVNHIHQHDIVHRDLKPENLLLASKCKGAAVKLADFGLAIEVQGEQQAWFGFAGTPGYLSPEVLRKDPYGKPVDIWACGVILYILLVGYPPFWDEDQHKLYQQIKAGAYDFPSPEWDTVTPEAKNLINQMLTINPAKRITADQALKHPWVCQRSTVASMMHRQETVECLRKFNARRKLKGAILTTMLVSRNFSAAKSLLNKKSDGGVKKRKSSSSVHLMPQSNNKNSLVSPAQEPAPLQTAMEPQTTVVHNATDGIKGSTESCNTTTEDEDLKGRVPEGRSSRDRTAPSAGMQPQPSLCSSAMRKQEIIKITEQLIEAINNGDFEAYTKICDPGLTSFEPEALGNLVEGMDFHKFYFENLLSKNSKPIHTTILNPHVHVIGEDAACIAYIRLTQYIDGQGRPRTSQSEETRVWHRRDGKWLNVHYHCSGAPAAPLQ
Sequence of UniProt Q7KZI7 (whole entry, looked up): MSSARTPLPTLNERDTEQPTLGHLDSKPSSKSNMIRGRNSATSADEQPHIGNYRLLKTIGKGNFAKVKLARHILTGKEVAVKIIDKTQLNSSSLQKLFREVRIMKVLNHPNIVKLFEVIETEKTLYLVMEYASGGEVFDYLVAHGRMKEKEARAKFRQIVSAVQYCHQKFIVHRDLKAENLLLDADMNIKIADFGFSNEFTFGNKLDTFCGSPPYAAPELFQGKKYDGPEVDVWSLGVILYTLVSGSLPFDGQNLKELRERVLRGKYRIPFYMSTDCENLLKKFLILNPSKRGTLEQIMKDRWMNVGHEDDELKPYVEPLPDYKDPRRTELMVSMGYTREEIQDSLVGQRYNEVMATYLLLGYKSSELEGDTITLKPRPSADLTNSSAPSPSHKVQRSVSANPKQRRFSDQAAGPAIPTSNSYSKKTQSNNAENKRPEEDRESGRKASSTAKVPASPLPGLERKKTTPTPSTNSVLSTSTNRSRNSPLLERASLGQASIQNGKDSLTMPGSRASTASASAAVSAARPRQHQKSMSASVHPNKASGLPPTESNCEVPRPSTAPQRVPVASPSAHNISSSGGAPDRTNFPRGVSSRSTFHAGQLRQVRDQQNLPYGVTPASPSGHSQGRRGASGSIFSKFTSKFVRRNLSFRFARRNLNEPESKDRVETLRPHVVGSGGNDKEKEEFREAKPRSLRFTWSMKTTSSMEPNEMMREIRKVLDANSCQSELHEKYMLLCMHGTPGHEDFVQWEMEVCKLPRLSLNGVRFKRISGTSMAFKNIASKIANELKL

Study 1
Target: LIM domain kinase 1 (LIMK1, Homo sapiens, UniProt P53667)
Sequence of UniProt P53667 (whole entry, looked up): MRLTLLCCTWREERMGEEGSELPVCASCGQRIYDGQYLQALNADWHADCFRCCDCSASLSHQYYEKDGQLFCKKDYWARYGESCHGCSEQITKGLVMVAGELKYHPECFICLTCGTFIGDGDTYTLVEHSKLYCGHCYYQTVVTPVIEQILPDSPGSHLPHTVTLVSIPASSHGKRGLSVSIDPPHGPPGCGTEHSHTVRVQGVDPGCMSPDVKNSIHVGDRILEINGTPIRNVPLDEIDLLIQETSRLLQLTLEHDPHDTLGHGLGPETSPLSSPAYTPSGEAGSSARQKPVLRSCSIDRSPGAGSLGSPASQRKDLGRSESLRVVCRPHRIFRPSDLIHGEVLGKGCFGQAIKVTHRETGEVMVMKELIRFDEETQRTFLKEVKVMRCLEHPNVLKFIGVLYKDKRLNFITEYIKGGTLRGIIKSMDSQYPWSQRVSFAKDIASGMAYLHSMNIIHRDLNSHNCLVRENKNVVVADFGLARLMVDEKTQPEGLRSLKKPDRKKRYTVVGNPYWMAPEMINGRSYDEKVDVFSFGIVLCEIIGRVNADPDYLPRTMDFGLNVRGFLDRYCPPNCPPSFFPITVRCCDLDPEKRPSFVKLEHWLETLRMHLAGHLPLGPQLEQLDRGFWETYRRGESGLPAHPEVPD
Read-out: enzyme activity
Mode: inhibitor
Tested at: 0.5 µM
Reference: control
SMILES	remaining activity
COc1cc2c(N3CCN(C(=O)Nc4ccc(OC(C)C)cc4)CC3)ncnc2cc1OCCCN1CCCCC1	88.6%
CCCCc1c(-c2ccc(O)cc2)[nH]c2nccnc12	64.3%
O=Nc1c(-c2c(O)[nH]c3ccccc23)[nH]c2ccccc12	65.9%
COc1cc2c(Nc3ccc(Br)cc3F)ncnc2cc1OCC1CCN(C)CC1	88.1%
Clc1ccc(Nc2nnc(Cc3ccncc3)c3ccccc23)cc1	98.9%
CCN(CC)CCCCN1c2ccccc2Oc2ccc(Cl)cc21	94.3%
O=C1NC(=O)/C(=C/c2ccc3c(c2)OC(F)(F)O3)S1	96.4%
N#CC(c1ccnc(NCCc2cccnc2)n1)c1nc2ccccc2s1 (centres unmarked)	90.2%
Nc1nc(Nc2ccc(S(N)(=O)=O)cc2)nn1C(=S)Nc1c(F)cccc1F	-0.611%
N#C/C(=C(/N)SC1C=CC=CC1)c1cccc(C(O)c2ccncc2)c1 (centres unmarked)	99.1%
FC(F)(F)c1ccc(/C=C/c2nc(COc3ccc(CCCCn4ccnn4)cc3)co2)cc1	99.2%
O=C1c2ccccc2-c2nc3nnnn3nc21	65%
O=C(c1ccccc1)c1ccc(N2CCOCC2)cc1O	83.9%
NC(=O)c1ccc(-c2nc(-c3ccc4c(c3)OCCO4)c(-c3ccccn3)[nH]2)cc1	104%
O=C(O)/C=C/c1cc(Br)c(Br)c(Br)c1Br	101%
CC(C)n1cnc2c(Nc3cccc(Cl)c3)nc(NCCO)nc21	105%
C[C@@H](N)[C@H]1CC[C@H](C(=O)Nc2ccncc2)CC1	85.8%
NC(=O)c1cccc(-c2cc(Nc3ccc(OC(F)(F)F)cc3)ncn2)c1	100%
CC(C)N(CCC(=O)c1ccc2ccccc2c1)Cc1ccccc1	103%
O=c1c(-c2ccc(F)cc2)c(-c2ccncc2)[nH]n1-c1ccc(Cl)cc1	91.5%
CNc1cc2c(Nc3cccc(Br)c3)ncnc2cn1	95.9%
CC(C)(C)c1nc2c3cc[nH]c(=O)c3c3cc(F)ccc3c2[nH]1	73.7%
c1cc(-c2cnn3cc(-c4ccc(OCCN5CCCCC5)cc4)cnc23)ccn1	66.4%

Study 2
Compound: CO[C@@H]1[C@H](N(C)C(=O)c2ccccc2)C[C@H]2O[C@]1(C)n1c3ccccc3c3c4c(c5c6ccccc6n2c5c31)C(=O)NC4
Read-out: enzyme activity
Mode: inhibitor
Tested at: 1 µM
target	inhibition [%]
LYN (Homo sapiens, UniProt P07948)	41
MARK4 (Homo sapiens, UniProt Q96L34)	84
MYLK (Homo sapiens, UniProt Q15746)	69
GRK2 (Homo sapiens, UniProt P25098)	23
CDC42BPA (Homo sapiens, UniProt Q5VT25)	0
PIP5K1A (Homo sapiens, UniProt Q99755)	99
CDKL3 (Homo sapiens, UniProt Q8IVW4)	0
MAP4K5 (Homo sapiens, UniProt Q9Y4K4)	27
ACVRL1 (Homo sapiens, UniProt P37023)	0
LATS2 (Homo sapiens, UniProt Q9NRM7)	68
Tyrosine-protein kinase ABL1, phosphorylated (ABL1, Homo sapiens, UniProt P00519, T315I)	46
MAP3K19 (Homo sapiens, UniProt Q56UN5)	98
ROS1 (Homo sapiens, UniProt P08922)	56

Study 3
Structure (SMILES): O=S(=O)(NC1CCC(c2cc(F)ccc2F)(S(=O)(=O)c2ccc(Cl)cc2)CC1)C(F)(F)F (centres unmarked)
Technique: competition with immobilised ligand
Tested at: 1 µM
target	read-out	remaining binding [%]
ULK1 (Homo sapiens, UniProt O75385)	cell-free assay	84
PIP4K2C (Homo sapiens, UniProt Q8TBX8)	cell-free assay	100
ULK2 (Homo sapiens, UniProt Q8IYT8)	cell-free assay	100
STK32B (Homo sapiens, UniProt Q9NY57)	cell-free assay	100
CHEK2 (Homo sapiens, UniProt O96017)	cell-free assay	100
PIK3C2G (Homo sapiens, UniProt O75747)	cell-free assay	100
NEK2 (Homo sapiens, UniProt P51955)	cell-free assay	98
KIT (Homo sapiens, UniProt P10721, V559D)	cell-free assay	95
LRRK2 (Homo sapiens, UniProt Q5S007)	cell-free assay	96
MAPK1 (Homo sapiens, UniProt P28482)	cell-free assay	100
MAP3K20 (Homo sapiens, UniProt Q9NYL2)	cell-free assay	92
NTRK3 (Homo sapiens, UniProt Q16288)	cell-free assay	91
DYRK2 (Homo sapiens, UniProt Q92630)	cell-free assay	100
CIT (Homo sapiens, UniProt O14578)	binding	0
HIPK4 (Homo sapiens, UniProt Q8NE63)	cell-free assay	74
WNK1 (Homo sapiens, UniProt Q9H4A3)	cell-free assay	100
PRKCQ (Homo sapiens, UniProt Q04759)	cell-free assay	100
CAMK2G (Homo sapiens, UniProt Q13555)	cell-free assay	100
EIF2AK1 (Homo sapiens, UniProt Q9BQI3)	cell-free assay	100

Study 4
Compound: Cc1ccc(NC(=O)c2ccnc(C(F)(F)F)c2)cc1-c1cc(OCCO)nc(N2CCOCC2)c1
Tested at: 1 µM
target	technique	setting	reference	remaining binding [%]
RET (Homo sapiens, UniProt P07949)	competitive binding panel		vehicle	92
EPHA3 (Homo sapiens, UniProt P29320)	competitive binding panel		vehicle	97
PTK2 (Homo sapiens, UniProt Q05397)	competitive binding	FAK		100
AKT3 (Homo sapiens, UniProt Q9Y243)	competitive binding panel		vehicle	100
EGFR (Homo sapiens, UniProt P00533, del746-750)	competitive binding panel		vehicle	86
MAP4K4 (Homo sapiens, UniProt O95819)	competitive binding panel		vehicle	88
MARK2 (Homo sapiens, UniProt Q7KZI7)	competitive binding panel		vehicle	99
ULK3 (Homo sapiens, UniProt Q6PHR2)	competitive binding panel		vehicle	85
NEK1 (Homo sapiens, UniProt Q96PY6)	competitive binding panel		vehicle	100
ABL1 (Homo sapiens, UniProt P00519, F317I)	competitive binding panel		vehicle	85

For quick reference, copied from above (study 4):
target	technique	setting	reference	remaining binding [%]
RET (Homo sapiens, UniProt P07949)	competitive binding panel		vehicle	92
EPHA3 (Homo sapiens, UniProt P29320)	competitive binding panel		vehicle	97
PTK2 (Homo sapiens, UniProt Q05397)	competitive binding	FAK		100
AKT3 (Homo sapiens, UniProt Q9Y243)	competitive binding panel		vehicle	100
EGFR (Homo sapiens, UniProt P00533, del746-750)	competitive binding panel		vehicle	86
MAP4K4 (Homo sapiens, UniProt O95819)	competitive binding panel		vehicle	88
MARK2 (Homo sapiens, UniProt Q7KZI7)	competitive binding panel		vehicle	99
